Assay results collected from several papers.
Lines come from different studies, so protocols differ. Several values in a cell are separate wells, animals, samples, runs or records. ± marks the error that the study gave. Bridge positions count the residues as written; N and C are the ends. Ends that are not written are not given here. * marks the point of attachment.
HLA-DRA/HLA-DRB1: HLA-DRA/HLA-DRB1 (Homo sapiens, UniProt P01903+P01911)
Sequence of UniProt P93026 (whole entry, looked up): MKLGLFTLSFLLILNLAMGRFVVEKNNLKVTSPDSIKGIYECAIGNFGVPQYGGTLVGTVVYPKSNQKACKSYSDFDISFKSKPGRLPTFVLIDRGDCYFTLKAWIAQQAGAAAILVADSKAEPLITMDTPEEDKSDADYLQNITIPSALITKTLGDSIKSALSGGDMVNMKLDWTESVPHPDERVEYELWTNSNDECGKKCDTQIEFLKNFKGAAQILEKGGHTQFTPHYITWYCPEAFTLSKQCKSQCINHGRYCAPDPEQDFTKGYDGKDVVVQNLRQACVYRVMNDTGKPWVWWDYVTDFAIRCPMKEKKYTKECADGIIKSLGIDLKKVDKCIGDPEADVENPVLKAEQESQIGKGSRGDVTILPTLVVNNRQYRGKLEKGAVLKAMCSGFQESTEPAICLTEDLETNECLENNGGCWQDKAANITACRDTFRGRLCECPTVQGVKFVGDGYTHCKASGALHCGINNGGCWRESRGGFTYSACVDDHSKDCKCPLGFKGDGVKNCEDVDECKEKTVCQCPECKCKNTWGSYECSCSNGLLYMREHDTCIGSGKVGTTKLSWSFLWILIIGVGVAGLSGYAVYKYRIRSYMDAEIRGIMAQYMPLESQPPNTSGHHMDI
Sequence of UniProt Q03519 (whole entry, looked up): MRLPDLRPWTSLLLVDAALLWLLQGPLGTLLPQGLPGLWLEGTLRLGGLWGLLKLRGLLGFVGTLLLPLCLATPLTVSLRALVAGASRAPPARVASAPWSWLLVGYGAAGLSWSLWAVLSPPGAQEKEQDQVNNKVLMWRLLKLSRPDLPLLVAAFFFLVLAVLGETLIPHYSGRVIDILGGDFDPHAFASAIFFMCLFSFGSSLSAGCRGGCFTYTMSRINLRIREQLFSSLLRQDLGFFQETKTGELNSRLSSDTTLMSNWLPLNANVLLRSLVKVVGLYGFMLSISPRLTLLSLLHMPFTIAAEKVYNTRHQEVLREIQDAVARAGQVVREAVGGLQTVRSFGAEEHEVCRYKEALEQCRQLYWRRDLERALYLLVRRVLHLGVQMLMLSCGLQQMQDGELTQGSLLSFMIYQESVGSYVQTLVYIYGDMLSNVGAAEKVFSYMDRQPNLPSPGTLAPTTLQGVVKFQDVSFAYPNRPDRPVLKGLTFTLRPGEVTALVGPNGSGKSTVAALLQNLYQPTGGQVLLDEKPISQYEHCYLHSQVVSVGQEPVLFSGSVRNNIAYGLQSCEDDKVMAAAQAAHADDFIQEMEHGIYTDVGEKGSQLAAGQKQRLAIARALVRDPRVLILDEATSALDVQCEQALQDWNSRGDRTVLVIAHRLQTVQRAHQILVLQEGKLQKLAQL
Sequence of UniProt Q9F663 (whole entry, looked up): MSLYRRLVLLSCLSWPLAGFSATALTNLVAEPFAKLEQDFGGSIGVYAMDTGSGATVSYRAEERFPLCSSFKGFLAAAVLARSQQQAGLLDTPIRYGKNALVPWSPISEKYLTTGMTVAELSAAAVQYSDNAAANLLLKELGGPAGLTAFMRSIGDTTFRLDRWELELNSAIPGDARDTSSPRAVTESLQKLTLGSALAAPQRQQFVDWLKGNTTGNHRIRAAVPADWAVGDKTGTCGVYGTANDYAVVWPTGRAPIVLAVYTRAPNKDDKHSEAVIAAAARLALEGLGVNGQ
Sequence of UniProt P41586 (whole entry, unmodified, looked up): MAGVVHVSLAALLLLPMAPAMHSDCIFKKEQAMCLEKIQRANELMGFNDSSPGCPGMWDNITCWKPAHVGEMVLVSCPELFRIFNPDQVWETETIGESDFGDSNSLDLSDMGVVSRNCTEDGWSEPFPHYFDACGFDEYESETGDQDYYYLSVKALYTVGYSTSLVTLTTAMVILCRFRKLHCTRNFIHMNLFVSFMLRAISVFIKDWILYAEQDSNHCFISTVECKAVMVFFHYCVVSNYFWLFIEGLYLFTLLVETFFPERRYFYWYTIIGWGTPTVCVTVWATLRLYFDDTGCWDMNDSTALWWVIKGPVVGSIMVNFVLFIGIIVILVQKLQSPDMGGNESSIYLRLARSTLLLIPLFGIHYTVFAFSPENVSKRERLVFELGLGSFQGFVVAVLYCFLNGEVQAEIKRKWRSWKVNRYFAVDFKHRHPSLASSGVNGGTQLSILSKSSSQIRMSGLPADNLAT
Sequence of UniProt O88703 (whole entry, unmodified, looked up): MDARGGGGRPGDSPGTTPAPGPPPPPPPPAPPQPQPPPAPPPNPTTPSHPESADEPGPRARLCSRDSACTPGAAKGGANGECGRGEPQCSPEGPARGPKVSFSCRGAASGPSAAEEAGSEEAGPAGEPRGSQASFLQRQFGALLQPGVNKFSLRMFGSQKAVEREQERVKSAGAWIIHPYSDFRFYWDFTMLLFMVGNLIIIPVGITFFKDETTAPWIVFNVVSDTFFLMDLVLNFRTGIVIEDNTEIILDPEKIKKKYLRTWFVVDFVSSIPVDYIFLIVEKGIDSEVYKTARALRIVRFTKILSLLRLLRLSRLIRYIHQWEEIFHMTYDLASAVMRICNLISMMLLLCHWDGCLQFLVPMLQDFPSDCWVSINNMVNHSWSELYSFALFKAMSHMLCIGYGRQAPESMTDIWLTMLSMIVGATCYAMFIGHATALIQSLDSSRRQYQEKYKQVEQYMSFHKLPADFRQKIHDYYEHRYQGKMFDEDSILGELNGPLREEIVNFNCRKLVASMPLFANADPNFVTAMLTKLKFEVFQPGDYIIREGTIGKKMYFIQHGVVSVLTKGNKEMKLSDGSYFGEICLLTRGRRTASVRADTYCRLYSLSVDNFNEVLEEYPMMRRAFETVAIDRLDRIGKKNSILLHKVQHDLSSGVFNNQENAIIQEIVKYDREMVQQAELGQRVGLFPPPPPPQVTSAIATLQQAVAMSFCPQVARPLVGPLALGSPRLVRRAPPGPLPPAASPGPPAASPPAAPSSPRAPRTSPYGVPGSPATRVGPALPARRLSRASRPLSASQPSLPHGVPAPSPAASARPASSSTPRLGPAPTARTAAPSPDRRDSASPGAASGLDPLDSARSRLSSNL
Sequence of UniProt P12821 (whole entry, looked up): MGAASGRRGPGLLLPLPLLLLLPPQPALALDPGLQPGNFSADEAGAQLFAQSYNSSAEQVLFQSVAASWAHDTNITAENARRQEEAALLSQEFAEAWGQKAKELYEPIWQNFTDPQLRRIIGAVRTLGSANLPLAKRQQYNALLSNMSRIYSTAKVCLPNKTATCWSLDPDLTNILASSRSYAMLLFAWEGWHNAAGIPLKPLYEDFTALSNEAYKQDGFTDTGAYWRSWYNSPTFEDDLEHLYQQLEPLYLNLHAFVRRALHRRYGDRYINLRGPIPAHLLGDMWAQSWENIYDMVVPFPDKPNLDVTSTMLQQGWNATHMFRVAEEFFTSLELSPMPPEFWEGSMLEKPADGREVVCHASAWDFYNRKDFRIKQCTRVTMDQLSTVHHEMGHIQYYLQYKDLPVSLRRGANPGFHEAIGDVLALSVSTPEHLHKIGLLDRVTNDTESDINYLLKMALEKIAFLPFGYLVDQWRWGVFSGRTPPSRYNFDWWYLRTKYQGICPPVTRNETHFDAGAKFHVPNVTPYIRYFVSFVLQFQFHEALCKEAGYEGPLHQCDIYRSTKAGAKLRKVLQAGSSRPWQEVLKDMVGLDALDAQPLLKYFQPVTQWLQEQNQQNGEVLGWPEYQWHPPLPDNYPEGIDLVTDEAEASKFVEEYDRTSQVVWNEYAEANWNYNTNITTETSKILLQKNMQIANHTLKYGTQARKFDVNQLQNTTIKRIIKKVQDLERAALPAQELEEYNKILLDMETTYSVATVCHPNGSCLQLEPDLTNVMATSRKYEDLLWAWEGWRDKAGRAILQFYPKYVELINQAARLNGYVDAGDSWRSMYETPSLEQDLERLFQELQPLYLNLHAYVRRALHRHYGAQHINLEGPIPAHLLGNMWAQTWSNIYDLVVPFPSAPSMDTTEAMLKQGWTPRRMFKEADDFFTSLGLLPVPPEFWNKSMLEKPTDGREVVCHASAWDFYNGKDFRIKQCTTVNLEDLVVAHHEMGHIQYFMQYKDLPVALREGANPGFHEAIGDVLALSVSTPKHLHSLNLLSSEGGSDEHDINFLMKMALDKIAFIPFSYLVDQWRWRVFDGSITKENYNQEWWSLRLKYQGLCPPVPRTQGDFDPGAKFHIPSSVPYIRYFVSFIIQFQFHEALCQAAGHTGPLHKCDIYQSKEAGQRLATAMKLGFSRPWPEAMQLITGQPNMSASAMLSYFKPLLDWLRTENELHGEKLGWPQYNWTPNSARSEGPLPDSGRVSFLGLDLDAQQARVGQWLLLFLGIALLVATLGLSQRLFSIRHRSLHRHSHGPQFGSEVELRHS

`Polymyxin B` has a survival of 0% (mouse; intraperitoneal, 30 mg/kg single dose, day 7).
`YRVAAA`: “change in Tm” “increased” (VSR1, PA domain (Arabidopsis thaliana, UniProt P93026); differential scanning fluorimetry; peptide; 5 mM, pH 7.1).
With `CHAAGDYAYATFGFTC (disulfide 1-16 (inferred)) (cyclic, disulfide)` the enrichment score was 915 (Carbapenem-hydrolyzing beta-lactamase KPC (KPC-2, Klebsiella pneumoniae, UniProt Q9F663); phage display selection; after 3 rounds; relative to: naive library frequency, direction not given).
For `PAALVAC (6-FAM-labelled)`, “substrate release rate constant” read 0.048 h⁻¹ (72 kDa type IV collagenase (MMP2, Homo sapiens, UniProt P08253); substrate, fluorescence; peptide).
The ΔH of `cGMP` is reported as -20.7 kcal/mol (Potassium/sodium hyperpolarization-activated cyclic nucleotide-gated channel 2, C-terminal region (Hcn2, Mus musculus, UniProt O88703, T592A); binding, ITC).
For `nonaarginine`, the kon was 4.2e+07 ± 4e+06 M⁻¹ s⁻¹ (PorA peptide pore; peptide binding, planar bilayer single-channel recording; 0.5 µM, pH 7.4, -35 mV, cis side, 150 mM KCl).
The inhibition of `aspterric acid` is reported as 99.2% (root length; Arabidopsis thaliana Col-0 seeds; 100 µg/mL, seed germination; relative to: water control).
With `IDLSDVELDDLGKDEL` the IC50 was 50 µM (HLA-DRA/HLA-DRB1; binding, inhibitor, radiolabelled peptide competition; peptide; with: radiolabelled peptide).
With `5′-methylthioadenosine` the inhibition was > 50% (DNA adenine methyltransferase CamA (Clostridioides difficile, UniProt Q183J3); enzyme activity; concentration not given).
`IETVDNKTSFRAY` — result for “translocated peptide size”: 10 to 13 amino acids (Antigen peptide transporter 1/Antigen peptide transporter 2 (Homo sapiens, UniProt Q03518+Q03519); Edman degradation; peptide, B-LCL 721 cells).
`tunicamycin` has an activity of > 200% (Oxidized purine nucleoside triphosphate hydrolase (NUDT1, Homo sapiens, UniProt P36639); activator; 200 µM, screen).
The efficacy of `evodiamine` is reported as -65.8 ± 1.38% (Cholinesterase (BCHE, Homo sapiens, UniProt P06276); inhibitor; Triton).
`Ac-APPIPPPRRKR-NH2 (N-acetyl, C-amide)` — result for “asymmetric stretch frequency”: 2254.6 ± 0.7 cm⁻¹ (Tyrosine-protein kinase Fyn, SH3 domain (FYN, Homo sapiens, UniProt P06241); binding, C-D FTIR probe; peptide; 4 mM, pH 7.0, band C, FYN complex, peptide P-2).
The koff of `ginkgolide B` is reported as 0.083 s⁻¹ (Rdl (Drosophila melanogaster, UniProt P25123); Drosophila; with: GABA EC50).
For `amyloid β-peptide (1–28)`, the remaining substrate was 8.7 ± 1.2% (substrate, LC-MS; phosphate buffer; 10 µM, 12 h, pH 7.4, 25 °C, with: MINP(β1–14) 1 equiv).
Under “optimal CaCl2 concentration”, `Cbz-Phe-Arg-{AMC} (Z-FR-AMC; Cbz = O=C(OCc1ccccc1)*; AMC = Cc1cc(=O)oc2cc(N*)ccc12)` is recorded as ~6 mM (Metacaspase-2 (MCA2, Trypanosoma brucei brucei, UniProt Q585F3); kcat/KM, substrate).
`insulin human` has a fold change of 0.998 (item: PTEN mRNA; uninfected mouse, brain; i.p., dose not given; relative to: PBS).
With `maxadilan` the Emax was 78 ± 2% (Pituitary adenylate cyclase-activating polypeptide type I receptor (ADCYAP1R1, Homo sapiens, UniProt P41586, del89-109); calcium mobilization, agonist, Fluo-8 AM; COS-7; AUC over 2 min).
The leg extraction of `glucagon` is reported as 27.3 ± 4.1% (isotope dilution; human, type 1 diabetes; intravenous infusion, 0.05 ng/kg/min, 100 to 120 min).
`heparin sodium`: “elevated blood uric acid” 0% (healthy Chinese adult volunteers; continuous intravenous infusion, 8 IU/kg/h, 5 days).
`HVLVMSATRR` gave a globulin of 1.6 g/dL and 1.7 g/dL (peptide, C57BL/6J mice, male, serum; subcutaneous osmotic pump, 3 mg/kg/day peptide basis, 8 weeks).
With `FYGQTLGQAQAHSQEQ` the IC50 was 50 µM (HLA-DRA/HLA-DRB1; binding, inhibitor, radiolabelled peptide competition; peptide; with: radiolabelled peptide).
The kcat of `Ac-TFELQGGGPRGVNL-NH2 (N-acetyl, C-amide)` is reported as 28.6 ± 3.7 s⁻¹ (Prothrombin (F2, Bos taurus, UniProt P00735); substrate, HPLC; pH 7.4, 25 °C, with: thrombin 2.2 nM).
With `tetrahydrofolate` the Vmax was 63 fluorescence units/s (Serine hydroxymethyltransferase, mitochondrial (SHMT2, Homo sapiens, UniProt P34897); enzyme activity, substrate, MTHFD2-coupled NADH fluorescence).
For `AIP-III D4A`, antagonist activity read “inactive” (Histidine kinase AgrC (Listeria monocytogenes, UniProt A8E0G3); agr reporter gene, antagonist; wild type; 10 µM).
The inhibition of `TLEPN` is reported as ~34.4% (Angiotensin-converting enzyme (ACE, Homo sapiens, UniProt P12821); enzyme activity, inhibitor, WST; peptide; 16.0 mM).
`PPAENSSAPEAEQGGAE`: “percentile rank of IC50” 92.4% (HLA-DRA/HLA-DRB1; binding, radiolabeled peptide competition; peptide).
Under activity, `Ivermectin` is recorded as “inactive” (Nuclear receptor subfamily 1 group I member 3 (Homo sapiens, UniProt Q14994); cell-based; concentration not given).

Excerpt of the above:
With `tetrahydrofolate` the Vmax was 63 fluorescence units/s (Serine hydroxymethyltransferase, mitochondrial (SHMT2, Homo sapiens, UniProt P34897); enzyme activity, substrate, MTHFD2-coupled NADH fluorescence).
The kcat of `Ac-TFELQGGGPRGVNL-NH2 (N-acetyl, C-amide)` is reported as 28.6 ± 3.7 s⁻¹ (Prothrombin (F2, Bos taurus, UniProt P00735); substrate, HPLC; pH 7.4, 25 °C, with: thrombin 2.2 nM).
For `AIP-III D4A`, antagonist activity read “inactive” (Histidine kinase AgrC (Listeria monocytogenes, UniProt A8E0G3); agr reporter gene, antagonist; wild type; 10 µM).
